Measured values of several laboratories.
Lines come from different studies, so protocols differ. ± marks the error that the study gave.
Organism: Influenza A virus

C=CC1=C(C)c2cc3nc(cc4[nH]c(cc5[nH]c(cc1n2)c(C)c5C=C)c(C)c4CCC(=O)OCCCCCCCCCCCCCC)C(CCC(=O)O)=C3C
IC50 (viral replication; MDCK, A/Puerto Rico/8/34 H1N1): 21.3 ± 3.5 µM

CC1=CCC[C@H](C)[C@@]12CC[C@@H](C(C)(C)O)C2
IC50 (cytopathic effect; MDCK, H3N2; 72 h): 51.2 µg/mL

CC(C)C1=CC2=C(C=O)C[C@@H]3[C@](C)(CCC[C@@]3(C)C(=O)OCC#CCN3CCOCC3)[C@H]2CC1
IC50 (viral replication; MDCK, A/Puerto Rico/8/34 (H1N1)): 5.48 µM

CC(C)CCOP(=O)(O)Oc1c2c(c(OP(=O)(O)OCCC(C)C)c3c1C1CC3c3cc4c(cc31)C1CC4c3ccccc31)C1CC2c2cc3c(cc21)C1CC3c2ccccc21
IC50 (viral replication; Caco-2): 2.8 µM

CCN(CC)CC#CCO[C@H]1CC[C@H](O)[C@@H]2[C@H]1[C@H]1C[C@@H]3[C@@]4(C)CCC[C@@](C)(C(=O)OC)[C@@H]4CC[C@@]23C=C1C(C)C
IC50 (viral replication; MDCK, A/Puerto Rico/8/34 (H1N1)): 21.3 µM

CN(C)CC(=O)O[C@@H]1C[C@@H]2CC[C@@]1(C)C2(C)C
IC50 (viral replication, inhibitor; MDCK, H1N1 PR8): 163 µM

CC1=CC[C@@H]2[C@]34CC[C@](O)(OC3=O)C(C)(C)[C@@H]4CC[C@@]2(C)[C@@]12Oc1cc(-c3cccnc3)oc(=O)c1[C@@H]2O
IC50 (viral replication; H1N1): 4.48 µM

O=P(O)(OCc1cccc2ccccc12)Oc1c2c(c(OP(=O)(O)OCc3cccc4ccccc34)c3c1C1CC3c3cc4c(cc31)C1CC4c3ccccc31)C1CC2c2cc3c(cc21)C1CC3c2ccccc21
IC50 (viral replication; Caco-2): 0.6 µM

CC1=CCC2C(C)(CCC3(O)C24CCC(O)(OC4)C3(C)C)C12Cc1c(cc(-c3cccnc3)oc1=O)O2 (stereo not shown)
IC50 (viral replication; H1N1): 4.56 µM

O=P(O)(OCc1ccccc1)Oc1c2c(c(OP(=O)(O)OCc3ccccc3)c3c1C1CC3c3cc4c(cc31)C1CC4c3ccccc31)C1CC2c2cc3c(cc21)C1CC3c2ccccc21
IC50 (viral replication; Caco-2): 8 µM

CC1=CC(O)C2C34CCC(O)(OC3)C(C)(C)C4CCC2(C)C12Oc1cc(-c3cccnc3)oc(=O)c1C2O (stereo not shown)
IC50 (viral replication; H1N1): 19.9 µM

C[C@@H](CO)C(=O)OCCc1ccc(O)cc1
IC50 (viral replication, inhibitor; H1N1 WSN; 24 h): 12.7 µM

C=CC1=C(C)c2cc3nc(cc4[nH]c(cc5[nH]c(cc1n2)c(C)c5C=C)c(C)c4CCC(=O)OCCCCCCCCCC)C(CCC(=O)O)=C3C
IC50 (viral replication; MDCK, A/Puerto Rico/8/34 H1N1): 7.2 ± 3.23 µM

CC(C)C1=CC2=CC[C@@H]3[C@](C)(CCC[C@@]3(C)C(=O)OCC#CCN3CCCC3)[C@H]2CC1
IC50 (viral replication; MDCK, A/Puerto Rico/8/34 (H1N1)): 13.7 µM

OC[C@H]1O[C@@H](OCCc2ccccc2)[C@H](O)[C@@H](O)[C@@H]1O
IC50 (viral replication, inhibitor; H1N1 WSN; 24 h): 12.5 µM

CCN(CC)CCCC(=O)O[C@@H]1C[C@@H]2CC[C@@]1(C)C2(C)C
IC50 (viral replication, inhibitor; MDCK, H1N1 PR8): > 14 µM

CCN(CC)CC#CCOC(=O)[C@]1(C)CCC[C@@]2(C)[C@H]1CC=C1C=C(C(C)C)CC[C@@H]12
IC50 (viral replication; MDCK, A/Puerto Rico/8/34 (H1N1)): 12.6 µM

O=P(O)(O)Oc1c2c(c(OP(=O)(O)O)c3c1C1CC3c3cc4c(cc31)C1CC4c3ccccc31)C1CC2c2cc3c(cc21)C1CC3c2ccccc21
IC50 (viral replication; Caco-2): 30.5 µM

CC(C)C1=CC2=C(C=O)C[C@@H]3[C@](C)(CCC[C@@]3(C)C(=O)OCC#CCN3CCCC3)[C@H]2CC1
IC50 (viral replication; MDCK, A/Puerto Rico/8/34 (H1N1)): 5 µM

CC1=CCC2C(C)(CCC3(O)C24CCC(O)(OC4)C3(C)C)C12Oc1cc(-c3cccnc3)oc(=O)c1C2O (stereo not shown)
IC50 (viral replication; H1N1): 7.43 µM

CCN(CC)CC#CCOC(=O)[C@]1(C)CCC[C@]2(C)[C@H]3C[C@H]4C(C(C)C)=C[C@]3(CC[C@H]21)[C@@H]1C(=O)OC(=O)[C@@H]14
IC50 (viral replication; MDCK, A/Puerto Rico/8/34 (H1N1)): 37.4 µM

C#CCCCCOP(=O)(O)Oc1c2c(c(OP(=O)(O)OCCCCC#C)c3c1C1CC3c3cc4c(cc31)C1CC4c3ccccc31)C1CC2c2cc3c(cc21)C1CC3c2ccccc21
IC50 (viral replication; Caco-2): 46.5 µM

C=CC1=C(C)c2cc3nc(cc4[nH]c(cc5[nH]c(cc1n2)c(C)c5C=C)c(C)c4CCC(=O)OCCCCCCCCCCCCCCCCCC)C(CCC(=O)O)=C3C
IC50 (viral replication; MDCK, A/Puerto Rico/8/34 H1N1): > 21.9 µM

CC(C)=CCC[C@H](C)c1ccc(C)cc1
IC50 (cytopathic effect; MDCK, H1N1 PR/8; 72 h): 18.4 µg/mL

C=CC1=C(C)c2cc3nc(cc4[nH]c(cc5[nH]c(cc1n2)c(C)c5C=C)c(C)c4CCC(=O)OCc1ccccc1)C(CCC(=O)O)=C3C
IC50 (viral replication; MDCK, A/Puerto Rico/8/34 H1N1): > 29.8 µM

C#CCCCOP(=O)(O)Oc1c2c(c(OP(=O)(O)OCCCC#C)c3c1C1CC3c3cc4c(cc31)C1CC4c3ccccc31)C1CC2c2cc3c(cc21)C1CC3c2ccccc21
IC50 (viral replication; Caco-2): 193 µM

CC12CCC(CC1=NCCO)C2(C)C (stereo not shown)
IC50 (viral replication, inhibitor; MDCK, H1N1 PR8): 1.2 µM

COC(=O)[C@]1(C)CCC[C@]2(C)[C@H]3C[C@H]4C(C(C)C)=C[C@]3(CC[C@H]21)[C@H]1[C@@H]4[C@@H](OCC#CCN2CCOCC2)CC[C@@H]1O
IC50 (viral replication; MDCK, A/Puerto Rico/8/34 (H1N1)): 14.7 µM

CCN(CC)CCC(=O)O[C@@H]1C[C@@H]2CC[C@@]1(C)C2(C)C
IC50 (viral replication, inhibitor; MDCK, H1N1 PR8): 36 µM

CCCCCCCOP(=O)(O)Oc1c2c(c(OP(=O)(O)OCCCCCCC)c3c1C1CC3c3cc4c(cc31)C1CC4c3ccccc31)C1CC2c2cc3c(cc21)C1CC3c2ccccc21
IC50 (viral replication; Caco-2): 24.5 µM

C=CC1=C(C)c2cc3nc(cc4[nH]c(cc5[nH]c(cc1n2)c(C)c5C=C)c(C)c4CCC(=O)OCc1ccc(-c2ccccc2)cc1)C(CCC(=O)O)=C3C
IC50 (viral replication; MDCK, H3N2): > 26.8 µM

CC1=CCC2C3(CO)CCC(O)C(C)(C)C3CCC2(C)C12Cc1c(cc(-c3cccnc3)oc1=O)O2 (stereo not shown)
IC50 (viral replication; H1N1): 18.4 µM

O=P(O)(OCCCc1ccccc1)Oc1c2c(c(OP(=O)(O)OCCCc3ccccc3)c3c1C1CC3c3cc4c(cc31)C1CC4c3ccccc31)C1CC2c2cc3c(cc21)C1CC3c2ccccc21
IC50 (viral replication; Caco-2): 3.8 µM

COC(=O)[C@]1(C)CCC[C@]2(C)[C@H]3C[C@H]4C(C(C)C)=C[C@]3(CC[C@H]21)[C@H]1[C@@H]4[C@@H](OCC#CCN2CCCC2)CC[C@@H]1O
IC50 (viral replication; MDCK, A/Puerto Rico/8/34 (H1N1)): 0.26 µM

Some of these lines once more:
CCN(CC)CCCC(=O)O[C@@H]1C[C@@H]2CC[C@@]1(C)C2(C)C
IC50 (viral replication, inhibitor; MDCK, H1N1 PR8): > 14 µM

C#CCCCCOP(=O)(O)Oc1c2c(c(OP(=O)(O)OCCCCC#C)c3c1C1CC3c3cc4c(cc31)C1CC4c3ccccc31)C1CC2c2cc3c(cc21)C1CC3c2ccccc21
IC50 (viral replication; Caco-2): 46.5 µM

CCN(CC)CCC(=O)O[C@@H]1C[C@@H]2CC[C@@]1(C)C2(C)C
IC50 (viral replication, inhibitor; MDCK, H1N1 PR8): 36 µM

C=CC1=C(C)c2cc3nc(cc4[nH]c(cc5[nH]c(cc1n2)c(C)c5C=C)c(C)c4CCC(=O)OCc1ccccc1)C(CCC(=O)O)=C3C
IC50 (viral replication; MDCK, A/Puerto Rico/8/34 H1N1): > 29.8 µM

O=P(O)(OCCCc1ccccc1)Oc1c2c(c(OP(=O)(O)OCCCc3ccccc3)c3c1C1CC3c3cc4c(cc31)C1CC4c3ccccc31)C1CC2c2cc3c(cc21)C1CC3c2ccccc21
IC50 (viral replication; Caco-2): 3.8 µM
